Published values of several laboratories.
Numbers after ± are the reported error. Bridge positions count the residues as written; N and C are the ends. Square brackets hold non-standard residues; d marks the D form. Ends that are not written are not given here.
KDM5A: KDM5A 287-347 (Homo sapiens, UniProt P29375)
Sequence of UniProt P29375 (whole entry, looked up): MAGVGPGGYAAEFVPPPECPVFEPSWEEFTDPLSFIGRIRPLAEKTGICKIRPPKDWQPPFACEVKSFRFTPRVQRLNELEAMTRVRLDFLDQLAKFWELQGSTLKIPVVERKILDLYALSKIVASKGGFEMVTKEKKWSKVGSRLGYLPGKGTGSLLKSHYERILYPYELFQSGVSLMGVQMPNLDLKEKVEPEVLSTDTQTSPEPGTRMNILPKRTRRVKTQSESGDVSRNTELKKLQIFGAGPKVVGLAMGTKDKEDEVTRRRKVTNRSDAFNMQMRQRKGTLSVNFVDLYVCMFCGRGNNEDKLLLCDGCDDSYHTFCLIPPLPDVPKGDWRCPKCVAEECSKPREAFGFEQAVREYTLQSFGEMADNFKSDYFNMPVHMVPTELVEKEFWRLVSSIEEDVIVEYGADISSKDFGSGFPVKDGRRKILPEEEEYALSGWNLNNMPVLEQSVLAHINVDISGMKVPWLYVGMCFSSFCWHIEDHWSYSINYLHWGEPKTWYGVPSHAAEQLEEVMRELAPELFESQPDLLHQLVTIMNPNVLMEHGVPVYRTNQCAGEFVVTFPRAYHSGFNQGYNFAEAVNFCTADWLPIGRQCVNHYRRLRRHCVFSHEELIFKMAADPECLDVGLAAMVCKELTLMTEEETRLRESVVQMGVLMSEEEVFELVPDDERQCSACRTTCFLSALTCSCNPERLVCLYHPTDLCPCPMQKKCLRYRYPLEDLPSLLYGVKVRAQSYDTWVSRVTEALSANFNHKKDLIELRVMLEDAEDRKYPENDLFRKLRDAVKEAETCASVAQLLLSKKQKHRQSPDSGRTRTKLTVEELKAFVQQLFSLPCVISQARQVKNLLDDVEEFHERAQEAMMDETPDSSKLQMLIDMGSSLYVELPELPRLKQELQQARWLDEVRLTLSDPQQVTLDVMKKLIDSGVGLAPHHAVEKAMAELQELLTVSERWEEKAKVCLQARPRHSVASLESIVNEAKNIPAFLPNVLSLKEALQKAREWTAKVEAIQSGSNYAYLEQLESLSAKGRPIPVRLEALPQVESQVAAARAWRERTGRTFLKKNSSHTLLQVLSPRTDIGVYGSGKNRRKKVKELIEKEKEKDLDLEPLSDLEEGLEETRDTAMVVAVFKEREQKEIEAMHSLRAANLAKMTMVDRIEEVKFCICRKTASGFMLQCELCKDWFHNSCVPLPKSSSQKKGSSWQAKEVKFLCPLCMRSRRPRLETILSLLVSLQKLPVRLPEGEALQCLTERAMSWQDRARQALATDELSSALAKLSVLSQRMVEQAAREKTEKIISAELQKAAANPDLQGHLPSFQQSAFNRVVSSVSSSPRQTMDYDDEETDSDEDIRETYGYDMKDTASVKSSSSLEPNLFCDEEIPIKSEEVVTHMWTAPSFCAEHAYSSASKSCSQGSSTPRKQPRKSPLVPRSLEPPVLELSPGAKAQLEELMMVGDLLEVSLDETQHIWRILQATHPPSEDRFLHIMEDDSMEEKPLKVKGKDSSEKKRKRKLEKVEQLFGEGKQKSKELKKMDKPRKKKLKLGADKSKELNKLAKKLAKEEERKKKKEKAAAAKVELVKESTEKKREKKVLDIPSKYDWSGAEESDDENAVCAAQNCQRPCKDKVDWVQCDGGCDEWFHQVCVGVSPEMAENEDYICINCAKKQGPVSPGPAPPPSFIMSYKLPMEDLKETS
GCGR: GCGR (Homo sapiens, UniProt P47871)
B1: SNRPB2 (Homo sapiens, UniProt P08579); chain MDIRPNHTIYINNMNDKIKKEELKRSLYALFSQFGHVVDIVALKTMKMRGQAFVIFKELGSSTNALRQLQGFPFYGKPMRIQYAKTDSDIISKMRGTFADKEKKKEKKKAKTVEQTATTTNKKPGQGTPNSANTQGNSTPNPQVPDYPPNYILFLNNLPEETNEMMLSMLFNQFPGFKEVRLVPGRHDIAFVEFENDGQAGAARDALQGFKITPSHAMKITYAKK
B2: IGFL1 24-110 (Homo sapiens, UniProt Q6UW32); chain GAPVAPMTPYLMLCQPHKRCGDKFYDPLQHCCYDDAVVPLARTQTCGNCTFRVCFEQCCPWTFMVKLINQNCDSARTSDDRLCRSVS
B3: mutL R531E (Escherichia coli, UniProt P23367); chain MPIQVLPPQLANQIAAGEVVERPASVVKELVENSLDAGATRIDIDIERGGAKLIRIRDNGCGIKKDELALALARHATSKIASLDDLEAIISLGFRGEALASISSVSRLTLTSRTAEQQEAWQAYAEGRDMNVTVKPAAHPVGTTLEVLDLFYNTPARRKFLRTEKTEFNHIDEIIRRIALARFDVTINLSHNGKIVRQYRAVPEGGQKERRLGAICGTAFLEQALAIEWQHGDLTLRGWVADPNHTTPALAEIQYCYVNGRMMRDRLINHAIRQACEDKLGADQQPAFVLYLEIDPHQVDVNVHPAKHEVRFHQSRLVHDFIYQGVLSVLQQQLETPLPLDDEPQPAPRSIPENRVAAGRNHFAEPAAREPVAPRYTPAPASGSRPAAPWPNAQPGYQKQQGEVYRQLLQTPAPMQKLKAPEPQEPALAANSQSFGRVLTIVHSDCALLERDGNISLLSLPVAERWLRQAQLTPGEAPVCAQPLLIPLRLKVSAEEKSALEKAQSALAELGIDFQSDAQHVTIRAVPLPLEQQNLQILIPELIGYLAKQSVFEPGNIAQWIARNLMSEHAQWSMAQAITLLADVERLCPQLVKTPPGGLLQSVDLHPAIKALKDE
B4: Ric8b 1-483 R71E (Mus musculus, UniProt Q80XE1); chain MDEERALYIVRAGEAGAIERVLRDYSDKHRATFKFESADEDKRKKLCEGIFKVLVKEVPTTCQVSCLEVLEILSRDKKILVPVTTKENMQILLRLAKLHESDDSLEKVSEFPVIVESLKCLCNIVFNSQMAQQLSLELNLAAKLCNLLRKCKDRKFINDIKCFDLRLLFVLSLLHTDIRSQLRYELQGLPLLTQILESAFSIKWTDEYESAIDHNGPPLSPQETDCAIEALKALFNVTVDSWKVHKESDSHQFRVMAAVLRHCLLIVGPTEDKTEELHSNAVNLLSNVPVSCLDVLICPLTHEETAQEAATLDELPSDKTTEKDTALKNSTMVYNGMNMEAIHVLLNFMEKRIDKGSSYREGLTPVLSLLTECSRAHRNIRKFLKDQVLPPLRDVTNRPEVGSTVRNKLVRLMTHVDLGVKQIAAEFLFVLCKERVDSLLKYTGYGNAAGLLAARGLLAGGRGDNWYSEDEDTDTEEYKNAKP
B5: EAF2 114-260 (Homo sapiens, UniProt Q96CJ1); sequence looked up; chain VEGSSKIQYRKEQQQQQMWNSARTPNLVKHSPSEDKMSPASPIDDIERELKAEASLMDQMSSCDSSSDSKSSSSSSSEDSSSDSEDEDCKSSTSDTGNCVSGHPTMTQYRIPDIDASHNRFRDNSGLLMNTLRNDLQLSESGSDSDD
B6: XCL1 mature protein V21C/V59C/S6A (UniProt P47992); chain VGSEVADKRTCVSLTTQRLPCSRIKTYTITEGSLRAVIFITKRGLKVCADPQATWVRDCVRSMDRKSNTRNNMIQTKPTGTQQSTNTAVTLTG
B7: BAK1 26-225 Y100A/Y124A (Arabidopsis thaliana, UniProt Q94F62); sequence looked up; chain NAEGDALSALKNSLADPNKVLQSWDATLVTPCTWFHVTCNSDNSVTRVDLGNANLSGQLVMQLGQLPNLQYLELASNNITGTIPEQLGNLTELVSLDLALNNLSGPIPSTLGRLKKLRFLRLNNNSLSGEIPRSLTAVLTLQVLDLSNNPLTGDIPVNGSFSLFTPISFANTKLTPLPASPPPPISPTPPSPAGSNRITG
B8: Cdh1 157-884 (Mus musculus, UniProt P09803); sequence looked up; chain DWVIPPISCPENEKGEFPKNLVQIKSNRDKETKVFYSITGQGADKPPVGVFIIERETGWLKVTQPLDREAIAKYILYSHAVSSNGEAVEDPMEIVITVTDQNDNRPEFTQEVFEGSVAEGAVPGTSVMKVSATDADDDVNTYNAAIAYTIVSQDPELPHKNMFTVNRDTGVISVLTSGLDRESYPTYTLVVQAADLQGEGLSTTAKAVITVKDINDNAPVFNPSTYQGQVPENEVNARIATLKVTDDDAPNTPAWKAVYTVVNDPDQQFVVVTDPTTNDGILKTAKGLDFEAKQQYILHVRVENEEPFEGSLVPSTATVTVDVVDVNEAPIFMPAERRVEVPEDFGVGQEITSYTAREPDTFMDQKITYRIWRDTANWLEINPETGAIFTRAEMDREDAEHVKNSTYVALIIATDDGSPIATGTGTLLLVLLDVNDNAPIPEPRNMQFCQRNPQPHIITILDPDLPPNTSPFTAELTHGASVNWTIEYNDAAQESLILQPRKDLEIGEYKIHLKLADNQNKDQVTTLDVHVCDCEGTVNNCMKAGIVAAGLQVPAILGILGGILALLILILLLLLFLRRRTVVKEPLLPPDDDTRDNVYYYDEEGGGEEDQDFDLSQLHRGLDARPEVTRNDVAPTLMSVPQYRPRPANPDEIGNFIDENLKAADSDPTAPPYDSLLVFDYEGSGSEAASLSSLNSSESDQDQDYDYLNEWGNRFKKLADMYGGGEDD
Sequence of UniProt Q61851 (whole entry, looked up): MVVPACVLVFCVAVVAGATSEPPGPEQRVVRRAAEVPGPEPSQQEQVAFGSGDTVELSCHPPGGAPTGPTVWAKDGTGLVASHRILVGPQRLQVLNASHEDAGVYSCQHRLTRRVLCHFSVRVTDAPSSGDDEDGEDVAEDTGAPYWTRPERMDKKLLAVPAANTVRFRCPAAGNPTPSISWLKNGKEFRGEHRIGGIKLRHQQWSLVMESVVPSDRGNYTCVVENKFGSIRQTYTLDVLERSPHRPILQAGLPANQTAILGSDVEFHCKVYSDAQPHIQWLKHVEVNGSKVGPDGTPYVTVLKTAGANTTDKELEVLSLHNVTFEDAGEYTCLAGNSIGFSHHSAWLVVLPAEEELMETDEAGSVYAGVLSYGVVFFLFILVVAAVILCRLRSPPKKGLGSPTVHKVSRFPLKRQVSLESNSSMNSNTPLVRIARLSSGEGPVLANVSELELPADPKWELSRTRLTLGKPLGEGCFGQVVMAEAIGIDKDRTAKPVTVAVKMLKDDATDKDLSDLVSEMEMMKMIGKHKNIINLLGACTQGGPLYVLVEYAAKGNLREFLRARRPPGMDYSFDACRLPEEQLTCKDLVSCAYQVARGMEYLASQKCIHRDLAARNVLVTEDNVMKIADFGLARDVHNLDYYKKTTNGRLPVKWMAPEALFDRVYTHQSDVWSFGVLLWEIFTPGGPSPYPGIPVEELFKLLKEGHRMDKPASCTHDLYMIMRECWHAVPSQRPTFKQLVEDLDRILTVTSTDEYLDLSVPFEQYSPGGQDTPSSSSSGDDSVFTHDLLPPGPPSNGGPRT
Sequence of UniProt P0DMV8 (whole entry, looked up): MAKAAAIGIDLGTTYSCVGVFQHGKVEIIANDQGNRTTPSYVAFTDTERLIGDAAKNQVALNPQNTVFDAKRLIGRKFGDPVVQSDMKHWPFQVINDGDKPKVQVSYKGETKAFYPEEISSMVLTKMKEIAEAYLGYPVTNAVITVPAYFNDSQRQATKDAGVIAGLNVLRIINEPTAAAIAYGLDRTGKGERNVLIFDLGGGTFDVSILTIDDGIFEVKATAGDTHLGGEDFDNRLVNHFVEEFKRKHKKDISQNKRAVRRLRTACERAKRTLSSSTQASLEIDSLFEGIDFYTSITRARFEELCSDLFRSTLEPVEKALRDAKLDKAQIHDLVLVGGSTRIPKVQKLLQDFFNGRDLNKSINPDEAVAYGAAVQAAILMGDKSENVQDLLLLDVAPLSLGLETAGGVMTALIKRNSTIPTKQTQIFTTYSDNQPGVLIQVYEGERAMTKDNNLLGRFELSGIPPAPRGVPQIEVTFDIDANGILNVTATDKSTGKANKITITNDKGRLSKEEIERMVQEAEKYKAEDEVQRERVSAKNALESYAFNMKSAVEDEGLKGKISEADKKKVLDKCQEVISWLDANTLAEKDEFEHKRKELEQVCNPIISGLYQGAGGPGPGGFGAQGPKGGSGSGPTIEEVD
Sequence of UniProt P38405 (whole entry, looked up): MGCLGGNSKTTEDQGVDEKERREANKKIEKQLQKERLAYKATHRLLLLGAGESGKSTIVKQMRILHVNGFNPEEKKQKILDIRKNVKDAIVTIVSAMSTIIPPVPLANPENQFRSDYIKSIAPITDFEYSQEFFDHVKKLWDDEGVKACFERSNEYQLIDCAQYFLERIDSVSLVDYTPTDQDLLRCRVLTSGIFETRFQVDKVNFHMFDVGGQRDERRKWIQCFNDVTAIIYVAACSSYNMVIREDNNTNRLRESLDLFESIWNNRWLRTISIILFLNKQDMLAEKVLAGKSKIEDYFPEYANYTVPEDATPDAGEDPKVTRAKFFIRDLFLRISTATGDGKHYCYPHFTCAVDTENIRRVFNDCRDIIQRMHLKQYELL
Sequence of UniProt P09661 (whole entry, unmodified, looked up): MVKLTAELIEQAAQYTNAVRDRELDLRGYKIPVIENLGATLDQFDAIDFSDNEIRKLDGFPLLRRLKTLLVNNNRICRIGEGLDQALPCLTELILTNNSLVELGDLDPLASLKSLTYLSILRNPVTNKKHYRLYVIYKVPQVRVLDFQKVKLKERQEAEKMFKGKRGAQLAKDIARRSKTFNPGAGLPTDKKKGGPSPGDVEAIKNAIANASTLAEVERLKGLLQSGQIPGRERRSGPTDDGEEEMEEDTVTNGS
Sequence of UniProt Q9NPB9 (whole entry, looked up): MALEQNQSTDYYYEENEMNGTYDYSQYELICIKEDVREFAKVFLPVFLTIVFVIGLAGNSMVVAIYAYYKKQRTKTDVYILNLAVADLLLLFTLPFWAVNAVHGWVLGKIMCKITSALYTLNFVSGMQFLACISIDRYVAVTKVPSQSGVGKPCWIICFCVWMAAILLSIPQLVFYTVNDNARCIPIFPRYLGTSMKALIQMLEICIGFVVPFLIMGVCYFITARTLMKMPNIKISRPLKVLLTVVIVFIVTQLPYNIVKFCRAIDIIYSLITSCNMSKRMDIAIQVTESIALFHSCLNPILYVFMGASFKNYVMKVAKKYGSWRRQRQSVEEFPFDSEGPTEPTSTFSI
Sequence of UniProt P09038 (whole entry, looked up): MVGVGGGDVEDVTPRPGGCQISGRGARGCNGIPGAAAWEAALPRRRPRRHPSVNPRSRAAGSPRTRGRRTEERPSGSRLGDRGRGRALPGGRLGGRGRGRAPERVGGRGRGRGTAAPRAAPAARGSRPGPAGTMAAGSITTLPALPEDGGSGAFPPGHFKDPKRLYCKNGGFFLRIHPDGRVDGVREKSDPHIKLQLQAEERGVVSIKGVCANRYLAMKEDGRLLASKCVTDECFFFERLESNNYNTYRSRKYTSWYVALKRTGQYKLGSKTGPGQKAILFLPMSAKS
Sequence of UniProt Q9H665 (whole entry, looked up): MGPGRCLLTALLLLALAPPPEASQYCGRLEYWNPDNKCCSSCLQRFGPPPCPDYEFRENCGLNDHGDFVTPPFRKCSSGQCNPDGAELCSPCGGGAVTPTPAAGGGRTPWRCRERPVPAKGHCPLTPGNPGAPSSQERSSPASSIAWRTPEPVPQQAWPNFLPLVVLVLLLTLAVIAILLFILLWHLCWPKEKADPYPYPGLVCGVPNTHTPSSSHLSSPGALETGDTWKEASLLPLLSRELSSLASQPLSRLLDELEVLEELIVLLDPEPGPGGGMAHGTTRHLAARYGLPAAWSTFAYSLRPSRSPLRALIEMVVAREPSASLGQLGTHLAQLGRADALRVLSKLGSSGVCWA
Sequence of UniProt O60829 (whole entry, looked up): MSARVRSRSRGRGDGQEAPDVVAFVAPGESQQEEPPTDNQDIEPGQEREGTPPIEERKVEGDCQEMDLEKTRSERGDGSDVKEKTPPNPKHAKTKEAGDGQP
Sequence of UniProt Q99731 (whole entry, looked up): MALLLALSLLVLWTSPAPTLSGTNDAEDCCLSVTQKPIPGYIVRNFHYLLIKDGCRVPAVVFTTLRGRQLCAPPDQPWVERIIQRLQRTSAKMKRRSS

`B1 (SNRPB2)` has an apparent ΔH of -85 ± 2 kcal/mol (SNRPA1 1-180 (Homo sapiens, UniProt P09661); ITC; 22 °C, apparent, no RNA).
`ADAR p110 isoform E912A (Homo sapiens)` has a pre-siRNA cleavage of 6 fold (DICER1 (Homo sapiens, UniProt Q9UPY3); in vitro cleavage; baseline: Dicer alone, higher = more cleavage).
`B2 (IGFL1 24-110)` gave a koff of 0.000128 s⁻¹ (IGFLR1 23-159 (Homo sapiens, UniProt Q9H665); SPR; pH 7.4, 25 °C, NaCl 0.15 M).
`B3 (mutL R531E)` has a MutL activity of 115% (mutH 1-229 (Escherichia coli, UniProt P06722); MutH cleavage of heteroduplex DNA; baseline: MutL wild type, higher = more activity).
For `B4 (Ric8b 1-483 R71E)`, the sensor folding was 29% (GNAL 1-381 (Homo sapiens, UniProt P38405); luminescence; RIC-8B knockout HEK293T; baseline: wild-type Ric-8B, higher = more folding).
For `B5 (EAF2 114-260)`, the protein half-life was under 4 h (VHL (Homo sapiens, UniProt P40337); pVHL stability after cycloheximide; in cells, added: Myc-U19/Eaf2).
`EPB41 fragment (Homo sapiens)` gave a koff of 0.0095 s⁻¹ (SLC9A1 residues 506-575 (Rattus norvegicus); resonant mirror; kinetic analysis).
`PAM18 (Saccharomyces cerevisiae, UniProt Q07914)` — result for “fold stimulation of ATPase”: 8 fold (SSC1 V459F (Saccharomyces cerevisiae); ATPase activity, activator; single turnover; baseline: basal rate, higher = more stimulation).
For `NGYENPTFKFFE (APP peptide 755-766 Y762F (Homo sapiens, UniProt P05067); sequence looked up)`, the Ki was 1000 nM (APBA2 364-570 (Homo sapiens, UniProt Q99767); fluorescence polarisation; peptide; added: TAMRA-labelled APP peptide 50 nM).
With `ARTKYTARKS (Histone H3.1 2-11 Q5Y (Homo sapiens, UniProt P68431); sequence looked up)` the Ki was 650 nM (KDM5A; competition with labeled peptide, fluorescence polarisation; peptide; added: H3 peptide).
Under “aggregation time constant”, `APP Aβ1-40 A2V (Homo sapiens)` is recorded as 8.3 h (APP Aβ1-40 (Homo sapiens); laser light scattering; equimolar mixture).
`ARTKFTARKS (Histone H3.1 2-11 Q5F (Homo sapiens, UniProt P68431); sequence looked up)` has a Ki of 980 nM (KDM5A; competition with labeled peptide, fluorescence polarisation; peptide; added: H3 peptide).
The mRNA level of `A2M methylamine-activated (Homo sapiens, UniProt P01023)` is reported as 13.4 fold (Lrp1 (Rattus norvegicus, UniProt G3V928); MCP-1/CCL2 mRNA; rat Schwann cells; 50 nM, 6 hr; baseline: vehicle, higher = more mRNA).
The relative affinity of `GOLGA2 GST fusion` is reported as 9 fold (KPNA2 ΔIBB, NLS-binding domain del IBB; ITC; baseline: TPX2 NLS, higher = tighter binding).
`liraglutide` gave an EC50 of over 1000 nM (GCGR; reporter gene, agonist, CRE luciferase reporter; HEK293).
`B6` has a potency decrease of 2.1 fold (XCR1 (Homo sapiens, UniProt P46094); calcium flux; HEK293; baseline: XCL1 CC3, higher = less potent).
With `FGF2 (Homo sapiens, UniProt P09038)` the cell proliferation was 34% (FGFR3 isoform IIIc (unknown, UniProt Q61851); cell proliferation, MTT; BaF3-FGFR3c; 20 nM, 48 h, added: chondroitin sulfate E 4.9 µg/mL; baseline: FGF 1 with heparin, higher = more proliferation).
With `DNAJB1 (Homo sapiens, UniProt P25685)` the relative activity was 70% (HSPA1A (Homo sapiens, UniProt P0DMV8); luciferase refolding; 30 nM, 150 min, 30 °C, added: Hsp72 3 µM; baseline: non-denatured luciferase, higher = more refolding).
`YAGRRKERPTSLNVFP (MAPK8IP3 D-site peptide (Homo sapiens))` gave an IC50 of 360 nM (MAPK8, pT183, pY185 (Homo sapiens, UniProt P45983); kinase activity, inhibitor, competitive kinase inhibition assay; peptide; added: ATP 1 mM).
Under “slow phase rate constant”, `cyp102A1 flavin reductase domain (Bacillus megaterium)` is recorded as 0.0024 s⁻¹ (CYP3A4 del3-12 (Homo sapiens, UniProt P08684); BMR-dependent reduction; proteoliposomes; no substrate).
For `B7 (BAK1 26-225 Y100A/Y124A)`, binding read “binds” (HAESA/IDA HAESA ectodomain; IDA 15-621, hydroxyproline in IDA (Arabidopsis thaliana); ITC; pH 5.0, 25 °C).
`B8 (Cdh1 157-884)` gave an E-cadherin association of 2.17 ± 0.22 a.u. (Vangl2 (Mus musculus, UniProt Q91ZD4); co-IP; HEK293T; β-catenin shRNA; baseline: control, higher = more association).
Under “peroxide turnover rate k1”, `CYCS (horse, UniProt P00004)` is recorded as 0.28 s⁻¹ (CcP, two covalent hemes (Shewanella oneidensis); steady-state kinetics; oxidized, tag-free, added: electron donor 4 µM).
For `thyrotropin-releasing hormone, pyroGlu, C-terminal amide (Gallus gallus)`, the EC50 was 2.91 nM (protein (Gallus gallus, UniProt A0A4P9IVJ2); MAPK/ERK signaling, SRE luciferase reporter, agonist; HEK 293).
`TIMP2 N-terminal domain S4E/N38Q/V71N/H97R/T99S` has a Ki of 78.9 nM (MMP10 99-263 (Homo sapiens, UniProt P09238); fluorogenic substrate cleavage, inhibitor, enzyme inhibition assay; apparent).
`FKBP1A (Homo sapiens, UniProt P62942)` gave an open time of 22.1 ms (RYR1 (Oryctolagus cuniculus, UniProt P11716); planar lipid bilayer recording; planar lipid bilayers; single channel, nonphosphorylated).
`Dnmt3l fragment F297D (Mus musculus)` — result for “methylation activity reduction”: 75% (Dnmt3a fragment (Mus musculus); DNA methylation activity; baseline: wild-type complex, higher = greater loss of activity).
For `JUN (Homo sapiens, UniProt P05412)`, “quantum yield ratio” read 1.24 (PAGE4, Alexa Fluor 555 at C63 (Homo sapiens, UniProt O60829); ensemble fluorescence; baseline: before adding c-Jun, higher = brighter after c-Jun).
With `CCL19 (UniProt Q99731)` the pEC50 was 9.1 (ACKR4 (Homo sapiens, UniProt Q9NPB9); β-arrestin2 recruitment, agonist, EFC; CHO-CCX-CKR; added: CXCL13 100 nM).
`FGF14 fragment, N-terminal adamantanecarbonyl, Glu tert-butyl ester, C-terminal ethyl ester (Homo sapiens)` gave a koff of 0.0122 s⁻¹ (SCN8A 1767-1912 (Homo sapiens, UniProt Q9UQD0-1); SPR).
With `H[dS]QGTFTSDYSKYLDS[dC]RAQDFVCWLMNTKRNRNNIA-NH2 (oxyntomodulin analog R17C/Q24C, Bph cross-link, D-Cys17; linker 17-24 via Bph; reading uncertain; Bph cross-link, D-Cys17; Bph = not defined here)` the EC50 was 3 nM (GCGR; CRE luciferase reporter, agonist; peptide, HEK293).
